{"data": "Measured values from different studies", "note": "Every numbered part comes from another study and shows a few of its results, in no order."}
{"data": "Set 1", "target": "Myc proto-oncogene protein, bHLH-zipper, MAX partner unstated (MYC, Homo sapiens, UniProt P01106, residues 368-449)", "method": "protein-binding microarray", "molecule type": "double-stranded DNA, one strand shown", "sample": "in vitro", "tested at": "not given", "setting": "k-mer, scored over probes, only values ≥0.25", "reading": "higher = stronger binding", "sequence of UniProt P01106 (368-449, looked up)": "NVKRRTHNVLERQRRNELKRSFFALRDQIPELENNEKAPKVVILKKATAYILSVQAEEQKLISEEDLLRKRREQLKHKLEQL"}
{"Sequence": "CAACATGA", "E-score": 0.281}
{"Sequence": "CCACGAGG", "E-score": 0.483}
{"Sequence": "ACCTCGCC", "E-score": 0.273}
{"Sequence": "CCATCTGC", "E-score": 0.3}
{"Sequence": "GGGGTGGA", "E-score": 0.27}
{"Sequence": "CGTGTCAG", "E-score": 0.341}
{"Sequence": "CTCCATGC", "E-score": 0.376}
{"Sequence": "GCGGGGAA", "E-score": 0.27}
{"Sequence": "ACGTGCCT", "E-score": 0.373}
{"Sequence": "CTGCACAC", "E-score": 0.345}
{"Sequence": "GGGCACAC", "E-score": 0.3}
{"Sequence": "ATCCGCAC", "E-score": 0.255}
{"Sequence": "ATCGTGGC", "E-score": 0.325}
{"Sequence": "CACGCACA", "E-score": 0.369}
{"Sequence": "ATGCGGCA", "E-score": 0.373}
{"Sequence": "CCATGGGG", "E-score": 0.364}
{"Sequence": "CGTGCATC", "E-score": 0.35}
{"Sequence": "GACCACAC", "E-score": 0.325}
{"Sequence": "CGCATGCA", "E-score": 0.416}
{"Sequence": "ACCACGAC", "E-score": 0.303}
{"Sequence": "CGTGCAGA", "E-score": 0.311}
{"Sequence": "AAACACAT", "E-score": 0.308}
{"data": "Set 2", "target": "RNA binding protein fox-1 homolog 2, RRM domain, GST-SBP tag (RBFOX2, Homo sapiens, UniProt O43251-10, residues 100-194)", "method": "RNA Bind-n-Seq", "molecule type": "RNA", "sample": "in vitro", "tested at": "365 nM", "setting": "natural RNA segment, single round, ends assumed", "relative to": "no-protein control", "reading": "higher = stronger binding"}
{"Sequence": "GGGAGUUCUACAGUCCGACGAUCUCCCACCCCACCCCGUUUUUUGUCCCUCCGUUUGAUCACCUCCCUGUUGAGUAUGGAAUGUCCCAGUUUAAUAUAAAACAUACAGUUUAUUCCACACAGCAGUUUGACUUUGGAAUUCUCGGGUGCCAA", "RBNS enrichment (R)": 0.845}
{"Sequence": "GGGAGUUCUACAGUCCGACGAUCAUGAGUUGUGUUUCUGGACUGUUUUGUUUUCCCCUUUAGACAAAGAGCAACUUAGAAGUAUUUGCAAACUUUUCCAGAACAUUCUCAAAGCCUGUGAUGGAGGAGCACAAUGGAAUUCUCGGGUGCCAA", "RBNS enrichment (R)": 0.427}
{"Sequence": "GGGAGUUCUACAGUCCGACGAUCGGAGGAUAAGAGUGUUCUUUCUUGAAAGCCGGGACUUCCCCUCAAGAACCUGGGCCUGGGGCCGGGACUCUGCAUGACUGGGAGCAAGUCACUUAAACCUCCUGUGCCUCUGGAAUUCUCGGGUGCCAA", "RBNS enrichment (R)": 11.8}
{"Sequence": "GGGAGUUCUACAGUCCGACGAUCUCCUGACUUCAAAUGAUCCACCCACAUCCACCUGCCAGAGUGCUGAGAUUACAGGCGUGAGCCACCGCACCUGGCCAAUGUUCUUUUAUAUACUCAUGUUUUCUAACAAAUGGAAUUCUCGGGUGCCAA", "RBNS enrichment (R)": 0.578}
{"Sequence": "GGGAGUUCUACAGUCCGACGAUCGAGCAAGAAACAAGGGCCUUAGAUGUGCCACGAAGGGCCCUUUGGUGGGCUGUGUGACAGUCGCGUGUGUCAUGAAGUGUGAAAUCUGGAGGAAGAAAAAAAAACAAGAGUGGAAUUCUCGGGUGCCAA", "RBNS enrichment (R)": 0.409}
{"Sequence": "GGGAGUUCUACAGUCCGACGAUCAGCAUAAACGCCUUCCGGAAGGACCUGCAGCUCCAGAGACCACCUCCUGAGCACCAAGACCUCUUCUGGUGGUGUGGAACCAGCCAAGAGAUUUCAAGGAAGAGUGAUUAUGGAAUUCUCGGGUGCCAA", "RBNS enrichment (R)": 0.458}
{"Sequence": "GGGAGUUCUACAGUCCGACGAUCUGCAGUUUGUGCGGCAGAUUGCUCUGCCAAGAUACUUGAACACUGUGUUUUAUUGUGGUAAUUAUGUUUUGUGAUUCAAACUUCUGUGUACUGGGUGAUGCACCCAUUGUUGGAAUUCUCGGGUGCCAA", "RBNS enrichment (R)": 1.12}
{"Sequence": "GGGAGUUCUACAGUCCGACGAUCGCUGGGGUUUGUUUGUGAGGAGAAAGAGUACUGUGGAAAACCUCUGCUUGAGUACCAUGUGGCCAGGCCUAUGUGGAUGGCUACUCCGUGCUGUGCGGCUUCACCAGCGGUGGAAUUCUCGGGUGCCAA", "RBNS enrichment (R)": 5.56}
{"data": "Set 3", "target": "Prothrombin, mature alpha-thrombin (F2, Homo sapiens, UniProt P00734)", "method": "aptamer microarray, sandwich", "molecule type": "DNA with 2'F-ANA", "sample": "in vitro", "tested at": "200 nM", "setting": "whole 15-mer aptamer, many near background", "with": "Cy3 exosite-II aptamer, 400 nM", "reading": "higher = stronger binding", "sequence": "GGTTGGTGTGGTTGG"}
{"Modification": "2'F-ANA at 1 3 4 8 9 10 12 13 15", "mean fluorescence intensity": "115 a.u."}
{"Modification": "2'F-ANA at 2 3 4 5 6 11 14", "mean fluorescence intensity": "52.7 a.u."}
{"Modification": "2'F-ANA at 1 2 3 4 8 9 11 12 13", "mean fluorescence intensity": "226 a.u."}
{"Modification": "2'F-ANA at 1 4 8 12 15", "mean fluorescence intensity": "341 a.u."}
{"Modification": "2'F-ANA at 2 3 4 6 8 9 12 14", "mean fluorescence intensity": "255 a.u."}
{"Modification": "2'F-ANA at 5 6 8 9 11 13 14 15", "mean fluorescence intensity": "56.8 a.u."}
{"Modification": "2'F-ANA at 1 5 6 9 10 12 13 14 15", "mean fluorescence intensity": "47.3 a.u."}
{"Modification": "2'F-ANA at 1 2 5 6 7 9 11 12 13 14 15", "mean fluorescence intensity": "50.5 a.u."}
{"Modification": "2'F-ANA at 1 4 8 9 10 11 12 15", "mean fluorescence intensity": "56.3 a.u."}
{"Modification": "2'F-ANA at 7 8 9 10 12 14", "mean fluorescence intensity": "144 a.u."}
{"Modification": "2'F-ANA at 2 5 6 7 8 9 10 11 13 14 15", "mean fluorescence intensity": "50 a.u."}
{"Modification": "2'F-ANA at 3 5 6 7 8 10 12 13", "mean fluorescence intensity": "69.9 a.u."}
{"Modification": "2'F-ANA at 2 5 6 7 11 12 13 14", "mean fluorescence intensity": "52.4 a.u."}
{"Modification": "2'F-ANA at 1 3 5 7 9 10 12 13 14", "mean fluorescence intensity": "46.7 a.u."}
{"Modification": "2'F-ANA at 2 3 5 7 9 12 13 14 15", "mean fluorescence intensity": "55.3 a.u."}
{"Modification": "2'F-ANA at 1 2 5 8 9 10 11 12 15", "mean fluorescence intensity": "44.4 a.u."}
{"Modification": "2'F-ANA at 1 3 7 8 10 14", "mean fluorescence intensity": "60.1 a.u."}
{"Modification": "2'F-ANA at 3 4 6 8 9 10 12 15", "mean fluorescence intensity": "283 a.u."}
{"Modification": "2'F-ANA at 1 3 4 8 9 14 15", "mean fluorescence intensity": "64.5 a.u."}
{"Modification": "2'F-ANA at 2 5 9 10 14 15", "mean fluorescence intensity": "47.2 a.u."}
{"Modification": "2'F-ANA at 3 8 9 10 11 13 14 15", "mean fluorescence intensity": "447 a.u."}
{"Modification": "2'F-ANA at 1 10 13 14", "mean fluorescence intensity": "48.7 a.u."}
{"data": "Set 4", "target": "Sal-like protein 4, full length isoform A (SALL4, Homo sapiens, UniProt Q9UJQ4, residues 1-1053)", "method": "universal PBM", "molecule type": "double-stranded DNA, one strand shown", "sample": "in vitro", "tested at": "600 nM", "setting": "8-mer, flanks averaged, mean of replicates", "reading": "higher = stronger binding", "sequence of UniProt Q9UJQ4 (whole entry, looked up)": "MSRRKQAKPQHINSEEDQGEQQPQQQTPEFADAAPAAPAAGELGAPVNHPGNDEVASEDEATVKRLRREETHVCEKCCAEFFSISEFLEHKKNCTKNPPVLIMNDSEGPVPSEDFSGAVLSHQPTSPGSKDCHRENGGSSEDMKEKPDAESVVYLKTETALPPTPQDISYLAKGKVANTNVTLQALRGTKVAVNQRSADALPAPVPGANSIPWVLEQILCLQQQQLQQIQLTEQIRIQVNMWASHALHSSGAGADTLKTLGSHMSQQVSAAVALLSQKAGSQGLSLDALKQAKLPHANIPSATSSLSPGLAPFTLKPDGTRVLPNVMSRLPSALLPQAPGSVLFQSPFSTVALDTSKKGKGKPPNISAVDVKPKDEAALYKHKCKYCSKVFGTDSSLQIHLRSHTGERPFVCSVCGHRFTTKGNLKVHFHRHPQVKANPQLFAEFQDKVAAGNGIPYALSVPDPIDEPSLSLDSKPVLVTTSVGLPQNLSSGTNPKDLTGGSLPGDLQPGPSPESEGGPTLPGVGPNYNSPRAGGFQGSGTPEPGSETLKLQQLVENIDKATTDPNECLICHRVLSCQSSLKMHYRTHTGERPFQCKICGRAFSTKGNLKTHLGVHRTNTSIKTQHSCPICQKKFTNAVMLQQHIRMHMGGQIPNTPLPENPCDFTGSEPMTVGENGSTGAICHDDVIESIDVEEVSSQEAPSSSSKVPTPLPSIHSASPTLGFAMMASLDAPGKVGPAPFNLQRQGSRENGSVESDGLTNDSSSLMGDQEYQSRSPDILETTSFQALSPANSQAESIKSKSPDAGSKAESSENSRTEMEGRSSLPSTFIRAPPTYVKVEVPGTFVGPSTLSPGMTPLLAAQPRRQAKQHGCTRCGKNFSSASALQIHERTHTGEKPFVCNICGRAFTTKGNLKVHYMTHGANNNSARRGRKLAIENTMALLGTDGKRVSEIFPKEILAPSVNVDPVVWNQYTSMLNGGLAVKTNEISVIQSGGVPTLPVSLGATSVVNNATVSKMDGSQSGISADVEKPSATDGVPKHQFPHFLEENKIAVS"}
{"Sequence": "CCTCCATA", "E-score": 0.0709}
{"Sequence": "CACGGACG", "E-score": -0.16}
{"Sequence": "ATCGTCCC", "E-score": 0.0164}
{"Sequence": "AAGAATGA", "E-score": 0.243}
{"Sequence": "CTCGAAAG", "E-score": -0.0953}
{"Sequence": "AGCTTTCC", "E-score": -0.164}
{"Sequence": "AGACCTCG", "E-score": -0.175}
{"Sequence": "ACGTGAGG", "E-score": -0.145}
{"Sequence": "GCCAGATA", "E-score": 0.0117}
{"Sequence": "GTACTACA", "E-score": 0.168}
{"Sequence": "ACTCTAAG", "E-score": 0.109}
{"Sequence": "GACATCCA", "E-score": 0.0161}
{"Sequence": "AGCCCGCT", "E-score": -0.187}
{"Sequence": "CCAATGCA", "E-score": -0.0562}
{"Sequence": "ATGCTAAT", "E-score": 0.195}
{"Sequence": "CATAAACG", "E-score": 0.284}
{"Sequence": "CCCCCAAC", "E-score": -0.322}
{"Sequence": "AAGAGCCG", "E-score": -0.287}
{"Sequence": "AGACGGGC", "E-score": -0.301}
{"Sequence": "CGAGACCC", "E-score": -0.363}
{"Sequence": "ACGAAGTG", "E-score": 0.0582}
{"Sequence": "ACTTTGGG", "E-score": -0.0704}
{"Sequence": "TCCCAACA", "E-score": -0.0103}
{"Sequence": "GTATCGTA", "E-score": 0.205}
{"Sequence": "TATGCTAA", "E-score": 0.253}
{"note": "For quick reference, copied from above (set 4):"}
{"Sequence": "ACTCTAAG", "E-score": 0.109}
{"Sequence": "GACATCCA", "E-score": 0.0161}
{"Sequence": "AGCCCGCT", "E-score": -0.187}
{"Sequence": "CCAATGCA", "E-score": -0.0562}
{"Sequence": "ATGCTAAT", "E-score": 0.195}
{"Sequence": "CATAAACG", "E-score": 0.284}
{"Sequence": "CCCCCAAC", "E-score": -0.322}
{"Sequence": "AAGAGCCG", "E-score": -0.287}
{"Sequence": "AGACGGGC", "E-score": -0.301}
